Measurements collected from several papers.
Each line is one published result; not all experiments were run side by side. Numbers after ± are the reported error.

SMILES | cell line | test | test system | conditions | how to read | quantity | value
CCCCn1cc(C(=O)O)c(=O)c2cc(F)c(Nc3cccc(Cl)c3)c([N+](=O)[O-])c21 | K562 | cell growth, SRB |  | 72 h |  | IC50 | 152 ± 27.7 µg/mL
CC(=O)N[C@H](C(=O)NCCCCCC(=O)NCC(=O)N[C@@H](Cc1c[nH]cn1)C(=O)N[C@@H](Cc1c[nH]cn1)C(=O)N1CCC[C@H]1C(=O)N[C@@H](Cc1c[nH]cn1)C(=O)NCC(=O)N[C@@H](Cc1c[nH]cn1)C(=O)N[C@@H](Cc1c[nH]cn1)C(=O)N1CCC[C@H]1C(=O)N[C@@H](Cc1c[nH]cn1)C(N)=O)C(C)(C)SSCCNC(=O)[C@H](Cc1c[nH]c2ccccc12)NC(=O)[C@H](CCCNC(=N)N)NC(=O)[C@H](Cc1c[nH]c2ccccc12)NC(=O)[C@H](CCCNC(=N)N)NC(=O)[C@H](Cc1c[nH]c2ccccc12)NC(=O)[C@@H](N)CCCNC(=N)N | DU-145, DTNB-pretreated | MTT |  | concentration not given, 24 h, Zn2+-activated |  | cytotoxicity | inactive
CC(=O)N[C@@H](CO)C(=O)N[C@@H](CC(=O)O)C(=O)N[C@@H](CCCCNC(=O)CCCC[C@@H]1SC[C@@H]2NC(=O)N[C@@H]21)C(=O)N1CCC[C@H]1C(=O)O | A549 | flow cytometry |  | 40 µg/mL, 120 min, 37 °C | relative to: cells | cellular uptake | 96.6 ± 1.9%
C[C@H](NC(=O)[C@H](CCCCN)NC(=O)[C@H](CCCCN)NC(=O)[C@H](CCCCN)NC(=O)[C@H](CCCCN)NC(=O)[C@@H](NC(=O)[C@H](C)NC(=O)[C@H](C)NC(=O)[C@H](Cc1ccc(O)cc1)NC(=O)[C@H](C)NC(=O)CNC(=O)CNC(=O)c1ccc2c(c1)C1(OC2=O)c2ccc(O)cc2Oc2cc(O)ccc21)[C@@H](C)O)C(N)=O | OPM-2 | peptidase degradation, capillary electrophoresis | cell lysate | 10 µM, pH 7.6, 37 °C |  | half-life | 4 min
COC(=O)C1CN1S(=O)(=O)c1cccc2ccccc12 (stereo not shown) | Balb/c 3T3 fibroblasts | cytotoxicity, neutral red uptake | DMEM with 5% FBS | 24 h |  | IC50 | 81 ± 10 µM
COc1cc(C=CC(=O)CC(=O)C=Cc2ccc(OC(=O)CCC(=O)OC3OC4OC5(C)CCC6C(C)CCC(C3C)C46OO5)c(OC)c2)ccc1OC(=O)CCC(=O)OC1OC2OC3(C)CCC4C(C)CCC(C1C)C24OO3 (stereo not shown) | C3PV normal primary fibroblasts | MTT |  | concentration not given |  | cytotoxicity | not toxic
CC1(C)C=Cc2c(ccc3c(=O)cc(-c4ccccc4)oc23)O1 | differentiated SH-SY5Y | MTT |  | 1 µM | relative to: control | viability | 97.4 ± 3.5%
CC[C@H](C)[C@H](NC(=O)[C@@H](CCCCN)NC(=O)[C@H](CCCCN)NC(=O)[C@H](Cc1ccccc1)NC(=O)[C@H](CC(C)C)NC(=O)[C@@H](CCCCN)NC(=O)[C@H](Cc1c[nH]c2ccccc12)NC(=O)[C@H](CCCCN)NC(C)=O)C(=O)NCC(=O)N[C@@H](C)C(=O)N[C@H](C(=O)N[C@@H](CC(C)C)C(=O)N[C@H](CCCCN)C(=O)N[C@H](C(=O)N[C@@H](CC(C)C)C(N)=O)C(C)C)C(C)C | RAW264.7 | cell viability, MTT |  | 1 h, 37 °C |  | LD50 | 98 µM
COC(=O)C1CN1S(=O)(=O)c1ccc2ccccc2c1 (stereo not shown) | Balb/c 3T3 fibroblasts | cytotoxicity, neutral red uptake | DMEM with 5% FBS | 24 h |  | IC50 | 610 ± 69 µM
CC1(C)C=Cc2c(cc(O)c3c(=O)cc(-c4ccccc4)oc23)O1 | differentiated SH-SY5Y | MTT |  | 0.1 µM, 24 h, retinoic acid differentiated | relative to: control | viability | 105 ± 2%

For quick reference, copied from above:
SMILES | cell line | test | test system | conditions | how to read | quantity | value
CC(=O)N[C@H](C(=O)NCCCCCC(=O)NCC(=O)N[C@@H](Cc1c[nH]cn1)C(=O)N[C@@H](Cc1c[nH]cn1)C(=O)N1CCC[C@H]1C(=O)N[C@@H](Cc1c[nH]cn1)C(=O)NCC(=O)N[C@@H](Cc1c[nH]cn1)C(=O)N[C@@H](Cc1c[nH]cn1)C(=O)N1CCC[C@H]1C(=O)N[C@@H](Cc1c[nH]cn1)C(N)=O)C(C)(C)SSCCNC(=O)[C@H](Cc1c[nH]c2ccccc12)NC(=O)[C@H](CCCNC(=N)N)NC(=O)[C@H](Cc1c[nH]c2ccccc12)NC(=O)[C@H](CCCNC(=N)N)NC(=O)[C@H](Cc1c[nH]c2ccccc12)NC(=O)[C@@H](N)CCCNC(=N)N | DU-145, DTNB-pretreated | MTT |  | concentration not given, 24 h, Zn2+-activated |  | cytotoxicity | inactive
